Measured values from different studies.
Parts stem from different laboratories: compare values within a part only. Changes are numbered by the printed parent chain. pEC50: −log10 of the molar value.
Chain of UniProt Q9HAZ1 (whole entry, looked up): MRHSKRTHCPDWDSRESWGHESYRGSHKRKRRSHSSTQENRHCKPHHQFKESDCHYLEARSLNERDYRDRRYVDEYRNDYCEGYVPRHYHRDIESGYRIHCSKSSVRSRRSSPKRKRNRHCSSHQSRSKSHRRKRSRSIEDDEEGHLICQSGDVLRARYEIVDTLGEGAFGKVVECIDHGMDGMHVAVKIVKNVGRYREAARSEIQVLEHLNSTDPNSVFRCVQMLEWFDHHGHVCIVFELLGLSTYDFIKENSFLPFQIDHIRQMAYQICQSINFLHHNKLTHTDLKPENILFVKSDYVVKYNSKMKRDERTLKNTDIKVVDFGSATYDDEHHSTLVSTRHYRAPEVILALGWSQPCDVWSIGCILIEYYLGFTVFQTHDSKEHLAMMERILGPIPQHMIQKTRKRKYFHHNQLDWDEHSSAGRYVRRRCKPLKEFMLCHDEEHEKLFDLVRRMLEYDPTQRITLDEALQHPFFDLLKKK
Chain of UniProt P53779 (whole entry, looked up): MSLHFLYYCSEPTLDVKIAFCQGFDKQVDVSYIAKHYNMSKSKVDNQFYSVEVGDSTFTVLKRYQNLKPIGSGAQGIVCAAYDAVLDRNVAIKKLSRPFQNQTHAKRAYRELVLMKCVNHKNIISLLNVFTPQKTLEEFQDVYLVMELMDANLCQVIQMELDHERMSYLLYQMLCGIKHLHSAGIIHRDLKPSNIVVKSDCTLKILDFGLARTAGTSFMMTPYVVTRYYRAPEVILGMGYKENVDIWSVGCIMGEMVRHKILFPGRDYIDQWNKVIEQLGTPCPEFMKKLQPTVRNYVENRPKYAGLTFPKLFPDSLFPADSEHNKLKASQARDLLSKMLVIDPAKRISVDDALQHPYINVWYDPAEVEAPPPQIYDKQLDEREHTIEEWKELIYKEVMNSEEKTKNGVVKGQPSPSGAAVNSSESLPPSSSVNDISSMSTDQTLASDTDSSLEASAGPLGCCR

Block 1
Variant: E128V
Target: ABI1, truncated, D143A, DHFR fusion (Arabidopsis thaliana)
Technique: DHFR PCA, deep sequencing
Matrix: yeast
Setting: methotrexate growth selection, single substitutions
Relative to: wild-type fitted maximum
Reading: higher = stronger binding
Starting sequence: PYL1, truncated, DHFR fusion (Arabidopsis thaliana); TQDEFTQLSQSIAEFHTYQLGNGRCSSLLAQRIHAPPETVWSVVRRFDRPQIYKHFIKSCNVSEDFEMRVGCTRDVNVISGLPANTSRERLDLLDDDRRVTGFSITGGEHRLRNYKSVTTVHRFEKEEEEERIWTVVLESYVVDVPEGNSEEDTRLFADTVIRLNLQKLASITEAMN; partner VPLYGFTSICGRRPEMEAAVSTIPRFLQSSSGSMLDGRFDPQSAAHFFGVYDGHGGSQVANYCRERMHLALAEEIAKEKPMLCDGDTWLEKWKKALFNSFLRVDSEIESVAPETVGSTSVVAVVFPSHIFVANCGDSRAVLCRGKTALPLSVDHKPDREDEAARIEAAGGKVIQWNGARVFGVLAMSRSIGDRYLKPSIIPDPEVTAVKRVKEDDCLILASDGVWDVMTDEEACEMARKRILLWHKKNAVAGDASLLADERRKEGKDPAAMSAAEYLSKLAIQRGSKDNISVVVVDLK
| added | relative binding score |
| --- | --- |
| (+)-ABA 2500 µM | 96.8% |
| (+)-ABA 1.4 µM | 42.9% |
| (+)-ABA 0.0091 µM | 7.61% |
| (+)-ABA 0.032 µM | 14.1% |
| (+)-ABA 710 µM | 106% |
| (+)-ABA 0 µM | 7.04% |

Single results of other studies
| Substance | tested on | test | test system | setting | how to read | quantity | value |
| --- | --- | --- | --- | --- | --- | --- | --- |
| DEK (Homo sapiens, UniProt P35659) | CCDC112 (Homo sapiens, UniProt Q8NEF3) | cross-linking MS | cell fractions | added: DSSO | – | cross-linked residues | K57 to K393 |
| C[C@@H]1CN(c2cc(-c3nn(C)c4ccc(OC5(C)CC5)cc34)ncn2)C[C@H](C)O1 | CLK4 (Homo sapiens, UniProt Q9HAZ1) | target engagement in cells, BRET | – | – | – | pEC50 | 5.21 |
| XPNPEP1 (Homo sapiens, UniProt Q9NQW7) | PLEKHG1 (Homo sapiens, UniProt Q9ULL1) | cross-linking MS | cell fractions | added: DSSO | – | cross-linked residues | K287 to K675 |
| Nc1nc(Nc2ccc(S(N)(=O)=O)cc2)nn1C(=O)c1c(F)cccc1F | MAPK10 (Homo sapiens, UniProt P53779) | enzyme activity, inhibitor | – | 0.5 µM | relative to: control | remaining activity | 100% |
| ANK3 (Homo sapiens, UniProt Q12955) | SMG5 (Homo sapiens, UniProt Q9UPR3) | cross-linking MS | cell fractions | added: DMTMM | – | cross-linked residues | D2575 to K278 |
| UFL1 (Homo sapiens, UniProt O94874) | CDK5RAP3 (Homo sapiens, UniProt Q96JB5) | cross-linking MS | cell fractions | added: DHSO | – | cross-linked residues | E126 to E435 |

Excerpt of the above (single results of other studies):
| Substance | tested on | test | test system | setting | how to read | quantity | value |
| --- | --- | --- | --- | --- | --- | --- | --- |
| Nc1nc(Nc2ccc(S(N)(=O)=O)cc2)nn1C(=O)c1c(F)cccc1F | MAPK10 (Homo sapiens, UniProt P53779) | enzyme activity, inhibitor | – | 0.5 µM | relative to: control | remaining activity | 100% |
